Published values from different studies.
A part holds a random share of what one study measured. Changes are numbered by the printed parent chain.

Set 1
Target: PABPC1L2, full length, GST fusion (mouse, UniProt A0ABA7IW68)
Method: RNAcompete
Molecule type: RNA
Medium: in vitro
Tested at: 20 nM
Notes: 7-mer, probes averaged, single round
Baseline: mean of 7-mers
Direction: higher = stronger binding
Construct (chain): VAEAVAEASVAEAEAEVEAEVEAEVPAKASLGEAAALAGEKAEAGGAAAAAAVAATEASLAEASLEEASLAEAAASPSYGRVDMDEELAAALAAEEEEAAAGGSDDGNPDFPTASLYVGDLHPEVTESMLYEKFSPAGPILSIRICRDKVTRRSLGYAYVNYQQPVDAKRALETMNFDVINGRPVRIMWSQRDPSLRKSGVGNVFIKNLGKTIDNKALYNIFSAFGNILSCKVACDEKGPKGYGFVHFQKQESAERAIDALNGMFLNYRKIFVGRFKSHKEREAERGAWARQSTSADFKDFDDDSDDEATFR
The 7-mer Z-score of `UGCGCAG` is reported as -0.184.
`CUUGAUG` has a 7-mer Z-score of -0.175.
With `CUCGGUG` the 7-mer Z-score was -0.204.
For `GACUAAU`, the 7-mer Z-score was -0.229.
With `UGGCACA` the 7-mer Z-score was -0.0355.
The 7-mer Z-score of `UACGAAA` is reported as 0.695.
For `UUAAGUC`, the 7-mer Z-score was -0.24.
`CUUUUCU` gave a 7-mer Z-score of -0.371.
The 7-mer Z-score of `UUCGAGG` is reported as 0.017.
With `AGCGCUU` the 7-mer Z-score was -0.306.
With `CUGACAG` the 7-mer Z-score was -0.199.
With `CUCUGCU` the 7-mer Z-score was -0.389.
For `ACUAUGC`, the 7-mer Z-score was -0.0446.
With `GACGGAU` the 7-mer Z-score was 0.113.
`GAACCGG` gave a 7-mer Z-score of -0.0844.
With `CGGCUCA` the 7-mer Z-score was -0.126.

Set 2
Target: Interferon regulatory factor 5, full length, phosphomimetic (IRF5, Homo sapiens, UniProt Q13568-2, residues 1-514, K96S/S451D/S453D/S456D/S462D)
Method: protein-binding microarray
Molecule type: double-stranded DNA, one strand shown
Medium: in vitro
Tested at: 250 nM
Notes: 60-bp whole probe
With: salmon DNA 0.4 mg/ml
Baseline: random background probes
Direction: higher = stronger binding
Shared flanks, not repeated: GCCTAGCAC … GTCTTGATTCGCTTGACGCTGCTG
The log fluorescence of `GACGGTCTCAGTTTCGGGACGTGCTAG` is reported as 5.64 z-score.
`TGCTTCTAACAGAGGAGGTTGTGCTAG` has a log fluorescence of -0.0574 z-score.
The log fluorescence of `TTCGATATCAGTCTCGATTAGTGCTAG` is reported as 3.06 z-score.
The log fluorescence of `TCATTTCTTTACTTCACACTGTGCTAG` is reported as 1.31 z-score.
With `TCAGGAGTCAACTCTCTAACTGTGCTA` the log fluorescence was -0.343 z-score.
For `GACGGTATCGACTTTTGGGACGTGCTA`, the log fluorescence was 1.9 z-score.
`TGTGTTATTAAATTTTCACGGGTGCTA` has a log fluorescence of 0.32 z-score.
With `TCACTCATACATCTGGGACTGTGCTAG` the log fluorescence was -0.0689 z-score.
`TTAGCACTGCTTCTCCTTTAGTGCTAG` gave a log fluorescence of 0.182 z-score.
`TTAGGACTGGGACTGGATTAGTGCTAG` gave a log fluorescence of -0.436 z-score.
For `TTAGGACTGGGACTGGGTTCGTGCTAG`, the log fluorescence was -0.62 z-score.
For `CTTTAGAGCAAGAACAGCCTGTGCTAG`, the log fluorescence was -0.364 z-score.
`GACGGTTTCCTACTGCTGATGTGCTAG` gave a log fluorescence of 0.393 z-score.
With `TCATTTTACTTTCTGAAACTGTGCTAG` the log fluorescence was 4.2 z-score.
`GACGATTTCCTTATCCTGACGTGCTAG` has a log fluorescence of 0.247 z-score.
`TTAGTTATCGGTCTCGGTTAGTGCTAG` gave a log fluorescence of 6.75 z-score.
The log fluorescence of `TCAGCTTCCATTTTCTGACTGTGCTAG` is reported as 1.4 z-score.
For `TTAGGAGTCAACTCTCTAATTGTGCTA`, the log fluorescence was -0.00148 z-score.
The log fluorescence of `TCAGTTTTAAATAGGGCACTGTGCTAG` is reported as 0.0818 z-score.

Set 3
Target: ABI1, truncated, D143A, DHFR fusion (Arabidopsis thaliana)
Method: DHFR PCA, deep sequencing
Medium: yeast
Notes: methotrexate growth selection, single substitutions
With: (+)-ABA 200 µM
Baseline: wild-type fitted maximum
Direction: higher = stronger binding
Parent: PYL1, truncated, DHFR fusion (Arabidopsis thaliana); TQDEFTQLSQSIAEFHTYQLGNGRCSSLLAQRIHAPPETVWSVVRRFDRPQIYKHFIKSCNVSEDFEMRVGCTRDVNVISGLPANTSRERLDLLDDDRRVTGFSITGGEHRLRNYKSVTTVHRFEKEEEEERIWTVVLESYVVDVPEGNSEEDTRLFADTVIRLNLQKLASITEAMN
`R111F`: “relative binding score” 53%.
`A13N`: “relative binding score” 98.4%.
Under “relative binding score”, `R74D` is recorded as 10.6%.
Under “relative binding score”, `T1Q` is recorded as 99.3%.
`Q10V` — result for “relative binding score”: 88.8%.
For `E139N`, “relative binding score” read 87.7%.
`T101G` — result for “relative binding score”: 20.4%.
`D92I`: “relative binding score” 67.8%.
`G102W`: “relative binding score” 14%.
`N114E`: “relative binding score” 58%.
`Q7C`: “relative binding score” 98%.
For `L93Y`, “relative binding score” read 104%.
`F15G`: “relative binding score” 14.6%.
Under “relative binding score”, `D144P` is recorded as 67.8%.
`A13T`: “relative binding score” 95.6%.
Under “relative binding score”, `E151A` is recorded as 104%.
Under “relative binding score”, `K58S` is recorded as 97.6%.
`V44R` — result for “relative binding score”: 36.9%.

Set 4
Target: RNA binding protein fox-1 homolog 2, RRM domain, GST-SBP tag (RBFOX2, Homo sapiens, UniProt O43251-10, residues 100-194)
Method: RNA Bind-n-Seq
Molecule type: RNA
Medium: in vitro
Tested at: 365 nM
Notes: natural RNA segment, single round, ends assumed
Baseline: no-protein control
Direction: higher = stronger binding
Shared flanks, not repeated: GGGAGUUCUACAGUCCGACGAUC … UGGAAUUCUCGGGUGCCAA
Residues (chain): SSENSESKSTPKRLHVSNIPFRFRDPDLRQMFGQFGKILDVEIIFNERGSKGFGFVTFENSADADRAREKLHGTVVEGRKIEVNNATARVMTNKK
`UCUGAAACAUUAUCAAACUUGUGUAAAUAUUUUGAUUUAUGUCUUAGAUCCUGUUAACCGUGUCCUCUAAUUGUCUUUAUUUUAAUGCCAAAAGGAAGUGAUUAUGCAGC` — result for “RBNS enrichment (R)”: 0.277.
For `AAAUAAGACAUGCUGAGUUUGGUGAGAAGAAGCAAAACCCGAGACCAUUAAUGAUUCAUCCGCACCAAUGAAGAAGUUGUAACUAACUAGCAUGCUGCGCAGACACUGGC`, “RBNS enrichment (R)” read 1.95.
For `AGUUGGCUUCUGUCUCUUUAGAGCCAAGAAAAUAGUAAUUAAGUGGCCUAGAUAUAGGAAGGGCAGAAUAAGCACUUACUCCCCCUGCCUUCCAAGAUGAAGAGGAGAAG`, “RBNS enrichment (R)” read 0.377.
`CCCCAGUUGCAUUUAUCGAGCCUUUCUGAUGGCCACAUAGCUCCUGGCAGUGGGUUGGAAGAUUUCUACUGGGUCACAUGAUGUCUGGUAAUGCCAUCUUGAACUCCCUG` — result for “RBNS enrichment (R)”: 0.48.
For `UUAGCUUGUGCUCAAGUCCUCUUGCUGUGUUUUCAGAAGCACUCACAUGUUCUUUCUUUUCCUGAGUGAAAAGCAAAGGUCCCACGGUGUGUGCUGUGGUGCACCGCCUG`, “RBNS enrichment (R)” read 0.249.
Under “RBNS enrichment (R)”, `UUUGGCUGUGCCUGGGUAGGGGCACUGUGCCUGCUUCUGAUUUUGAAAGAAGCAUCCUGGAAACCAUGAAGUAUUCUACUAUGAAGGGCGCAUCUGCCCUGGUCAGCUGU` is recorded as 0.324.
Under “RBNS enrichment (R)”, `CCAUGUCUGGCAGAUGAGGGCUGUUUGCCCUUUUCUGUGCCAAUGAGUGCCCUUUUCUGGCACUCUCAGACCAAAAGUGUUUAUUGUGUCAUUUGUCCUUUGUCUAGGAG` is recorded as 0.339.
`AGAUUUUAUUUUUAAUUUAUCUCUGUGACCUGCCAGGGAGAGGAGAGAAAGAAAUGCUGUGAGCACAUGACAAAAUAAAAUCAAAUAAAAUGGAUGAUUCAGCUUAAGUG`: “RBNS enrichment (R)” 0.436.
